Measured values gathered from unrelated publications.
A part holds a random share of what one study measured.

Series 1 — method: RNA Bind-n-Seq; form: RNA; matrix: in vitro; concentration: 1 µM; notes: whole 134-nt RNA, ends assumed; together with: 150 mM KCl; reference: input library; reading: higher = stronger binding; quantity: log2 enrichment
Target: Ras GTPase-activating protein-binding protein 1, C-terminal RGG region (G3BP1, Homo sapiens, UniProt Q13283)
Sequence of UniProt Q13283 (whole entry, looked up): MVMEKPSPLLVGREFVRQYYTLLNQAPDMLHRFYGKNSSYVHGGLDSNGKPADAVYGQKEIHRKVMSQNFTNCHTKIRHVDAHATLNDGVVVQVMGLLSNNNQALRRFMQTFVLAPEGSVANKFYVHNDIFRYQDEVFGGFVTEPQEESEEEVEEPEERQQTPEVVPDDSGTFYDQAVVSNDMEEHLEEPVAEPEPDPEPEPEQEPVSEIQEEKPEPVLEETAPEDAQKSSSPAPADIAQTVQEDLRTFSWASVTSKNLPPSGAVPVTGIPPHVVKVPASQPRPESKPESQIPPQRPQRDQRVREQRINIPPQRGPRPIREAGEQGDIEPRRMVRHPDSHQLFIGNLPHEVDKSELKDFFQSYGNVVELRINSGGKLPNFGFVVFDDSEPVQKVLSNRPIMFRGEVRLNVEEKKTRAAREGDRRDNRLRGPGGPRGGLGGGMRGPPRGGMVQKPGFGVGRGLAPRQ
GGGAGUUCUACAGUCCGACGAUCUCCUGUGCUACACAUCGUAUGUACCGAAUCGGCCCCCCGGGGCCCCCCGGGCCCCCCGGGAAAGUAUUAUGUUACGCCGUUCGGAUCUGCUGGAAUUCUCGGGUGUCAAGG: -1.64
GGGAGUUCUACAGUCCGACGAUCACUGAGGUACUGCCCUCCCCUGCCCCCUACCCUCUCCCUUGUCCCUCUACCCCGUUCCUCCCCUUCCCUCCAUUCCCUUUCCCCAACCUGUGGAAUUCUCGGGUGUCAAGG: -0.0208
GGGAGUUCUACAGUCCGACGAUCGCAGGAAGUAAAAACAAAUGGAAAUGCUUCGGAUAGUCGCAGGGGUGGGGGUUGCUAAGGAAAGGGUGGGAUGGGAGUGGGUAAAGAGUUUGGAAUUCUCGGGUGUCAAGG: 0.858
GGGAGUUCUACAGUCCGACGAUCUGGCCCUGGUGGCAUGCGGGGAGGAAGAGGUGGCCUCAUGGAUCGUGGUGGUCCCGGUGGACUGUUCAGAGGUGGCCGUGGUGGAGACAGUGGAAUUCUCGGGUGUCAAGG: 1.87
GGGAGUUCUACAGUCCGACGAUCUGGGAGGUGGAUUUUGUUUAUUUUUUUAGCUCAUUUCCAGGGGUGGGAAUUUUUUUUUAAUAUGUGUCAUUAAUAAAGUUGUUUUUGAAAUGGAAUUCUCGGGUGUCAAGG: 3.54
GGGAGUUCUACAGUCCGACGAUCCUGUGCUACACAUCGUAUGUACCGAAUCGGGGAAAAAAAGGGGAAAAAAAGGGGUUUGGGGAAAGUAUUAUGUUACGCCGUUCGGAUCUGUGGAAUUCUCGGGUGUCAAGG: 0.0417
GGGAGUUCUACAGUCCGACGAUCUGGCCCUGGUGGCAUGCGGGGAGGAAGAGGUGGCCUCAUGGAUCGUGGUGGUCCCGGUGGAAUGUUCAGAGGUCGCCGUGGUGGAGACAGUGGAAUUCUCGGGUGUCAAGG: 3.15
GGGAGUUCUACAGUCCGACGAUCUGGAAGUGGCGCUGGCGCCUGAAGAGUUGGAGCUGGAUCCUAUGGCCAUGACCCAGAAGUAUGAGGAGCAUGUGCGGGAGCAGCAGGCUCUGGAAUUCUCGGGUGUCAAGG: -0.254
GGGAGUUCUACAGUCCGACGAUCCUGUGCUACACAUCGUAUGUACCGAAUCGGGGCCCCCCCGGGCCCCCCCGGGCCCCCCCGGAAAGUAUUAUGUUACGCCGUUCGGAUCUGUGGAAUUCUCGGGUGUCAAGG: -1.64
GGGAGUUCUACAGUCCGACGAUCUUCUUUGCCCAACGGGGCCGUGGAUACCUGCCUUUUAAUUCUUUUUUAUUCGCCCAUCGGGGCCGCGGAUACCUGCUUUUUAUUUUUUUUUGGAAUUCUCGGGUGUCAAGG: -0.359

Series 2 — method: universal PBM; form: double-stranded DNA, one strand shown; matrix: in vitro; concentration: not given; reading: higher = stronger binding; quantity: E-score
Target: Sal-like protein 4, full length isoform B (SALL4, Homo sapiens, UniProt Q9UJQ4-2, residues 1-616)
Notes: 8-mer, flanks averaged, mean of replicates
GGGGATAC: -0.234
ACCCATCC: -0.102
ACTGTAGG: 0.07
CAATTAGA: 0.14
AGAAGTAG: -0.0266
CCCGAGTA: -0.0177
TAAACATA: 0.346
AGTGCTTC: -0.113
GCTGAAGC: -0.118
CAGCCTGA: -0.107
TGTCTGAA: 0.0121
CTCAGGAA: -0.151
AACGAGTG: 0.102
CCGCTAAC: -0.219
ACTAAACT: 0.0792
TCACACGA: 0.00387
CTTGTGGA: -0.169
ACGAGCAG: -0.127
GAGTCCTA: -0.0934
AACTGTAT: 0.323
AAACCTCG: -0.0978
TACCACGA: 0.0664
GTTATAAC: 0.234
AGCACGCA: -0.132
CAGTAGCC: -0.18

Series 3 — method: protein-binding microarray; form: double-stranded DNA, one strand shown; matrix: in vitro; concentration: 0.8 µM; notes: whole 60-bp probe, no competitor; reading: higher = stronger binding; quantity: fluorescence intensity
Target: Centromere-binding protein 1, full length, N-terminal tag (CBF1, Saccharomyces cerevisiae, UniProt P17106, residues 1-351)
Sequence of UniProt P17106 (whole entry, looked up): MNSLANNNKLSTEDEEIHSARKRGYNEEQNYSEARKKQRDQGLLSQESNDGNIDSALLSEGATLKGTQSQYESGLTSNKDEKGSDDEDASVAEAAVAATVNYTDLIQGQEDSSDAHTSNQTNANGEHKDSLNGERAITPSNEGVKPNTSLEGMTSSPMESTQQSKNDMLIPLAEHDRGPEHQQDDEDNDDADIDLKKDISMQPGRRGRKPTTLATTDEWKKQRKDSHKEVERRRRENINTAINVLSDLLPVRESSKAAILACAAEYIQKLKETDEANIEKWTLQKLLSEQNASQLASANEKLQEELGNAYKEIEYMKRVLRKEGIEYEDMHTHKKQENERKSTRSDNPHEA
CTAGACATTCTGGCCAACGTGCATTCGACGGAATTCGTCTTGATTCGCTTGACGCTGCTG: 590 a.u.
CTAATACGAATAGGTGCCGTGATGAAGAAAAAATTCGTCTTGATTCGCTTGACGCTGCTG: 644 a.u.
GAAGATCCAGAGGAAAACGCCACCTCTAATGCATAGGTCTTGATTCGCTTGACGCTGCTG: 496 a.u.
CTATCTGACATTGCTAGTGTCACGTTCAGAAAATTCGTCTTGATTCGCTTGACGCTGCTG: 3620 a.u.
CTAGCTTTCATGCCATTGGTGACACGAAAAAAATTCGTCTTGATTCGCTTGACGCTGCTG: 567 a.u.
CTACCCCGGTTGAGTGATGTTAACGATGTTTACTTCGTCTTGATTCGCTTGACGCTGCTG: 470 a.u.
GAAAACAAAGTTTATCACGTTGTTGGTACTTAGTAGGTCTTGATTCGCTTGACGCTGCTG: 1290 a.u.
CCTAACTACTATACTTACACCACATAGCTTCGTACAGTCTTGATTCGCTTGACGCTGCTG: 531 a.u.
GAAATGAATCGCACGCACGCGTAAACATTTATCTAGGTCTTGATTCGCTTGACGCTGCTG: 650 a.u.
GAACTTTATATATCCCACGAGGAGACTGCGCGATAGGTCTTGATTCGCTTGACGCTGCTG: 573 a.u.
CTAATTTGGCATGGTGTGGTGATGTCTCTTTTCTTCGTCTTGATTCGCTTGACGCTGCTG: 541 a.u.
TGTACGAAGCTATGGCACGCCGGTATAGTAGTTAGGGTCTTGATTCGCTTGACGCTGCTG: 535 a.u.
GAAGAGACGCCCGTTGATGTTACTAGTGATGAATAGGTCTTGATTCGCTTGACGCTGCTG: 526 a.u.

Series 4 — method: protein-binding microarray; form: double-stranded DNA, one strand shown; matrix: in vitro; concentration: 2200 nM top; notes: 60-bp whole probe; together with: salmon DNA 0.4 mg/ml; reference: random background probes; reading: higher = stronger binding; quantity: fitted relative affinity; all sequences stand within: GCCTAGCAC … GTCTTGATTCGCTTGACGCTGCTG
Target: Interferon regulatory factor 7, full length, phosphomimetic (IRF7, Homo sapiens, UniProt Q92985, residues 1-503, S471D/S472D/S475D/S476D/S477D/S483D/S484D/S487D)
Construct (chain): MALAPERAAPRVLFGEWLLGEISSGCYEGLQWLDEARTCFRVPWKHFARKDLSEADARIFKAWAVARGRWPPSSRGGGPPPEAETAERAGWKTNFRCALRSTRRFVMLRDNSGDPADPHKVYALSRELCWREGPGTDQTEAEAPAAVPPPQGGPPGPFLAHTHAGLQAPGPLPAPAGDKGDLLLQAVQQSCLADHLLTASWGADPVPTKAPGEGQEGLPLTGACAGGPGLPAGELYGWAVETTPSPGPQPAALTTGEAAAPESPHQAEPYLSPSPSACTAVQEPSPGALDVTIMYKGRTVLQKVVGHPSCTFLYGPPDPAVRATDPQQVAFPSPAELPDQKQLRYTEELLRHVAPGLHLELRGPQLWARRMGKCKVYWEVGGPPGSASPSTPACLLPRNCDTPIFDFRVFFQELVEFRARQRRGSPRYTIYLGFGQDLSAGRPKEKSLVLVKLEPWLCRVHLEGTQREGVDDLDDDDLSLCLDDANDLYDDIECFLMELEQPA
ATAGGTTTCGACACTGGGTTAGTGCTA: 2.47 z-score
TTAGGACTGGGTCTCGGTGAGTGCTAG: -0.733 z-score
GATGGACTGGGACTGGGGACGTGCTAG: -0.601 z-score
TTAGATTTCGGGACTGGATCAGTGCTA: 1.13 z-score
TCACCACTCCAGTTCTGACTGTGCTAG: 1.4 z-score
ATAGATCTCAGTTTCGATTAGTGCTAG: 6.33 z-score
GACGGTATCCTACTGTTGACGTGCTAG: 0.559 z-score
TCATGTTTCCTCTTTCAACTGTGCTAG: 3.35 z-score
TCCTCTGTCATTTTCTCTTAGTGCTAG: 2.69 z-score
TTAGATATCAGTATCCATTAGTGCTAG: 0.519 z-score
TTAGGTTTCGACACTGGATTAGTGCTA: 2.27 z-score
TCAGGTTAAAATTTTGCACTGTGCTAG: -0.0896 z-score
GACGGTCTCGGTCTCGTGACGTGCTAG: 0.112 z-score
TTAGGACTGGACGTTCGGTTAGTGCTA: 0.00761 z-score
TTAGAACTGGGGACTGCATTAGTGCTA: -0.433 z-score
TTAGATCTCCTTCTCCTTTAGTGCTAG: 1.18 z-score
TGAACTTCGGCCTCTAGGTTTGTGCTA: -0.0795 z-score
GACGGTATCGGATTGGGGACGTGCTAG: 0.582 z-score
TTTGCTTTCCTTTGCTTTCTGTGCTAG: 4.15 z-score
GACGGGTTCGGTCTCGGGACGTGCTAG: 0.265 z-score
GGCGATCTCAGTATCGAGACGTGCTAG: -0.49 z-score
GACGGTCTCCATCTCCTGACGTGCTAG: 0.994 z-score
TTAGGTCTCCTTAACCTTTAGTGCTAG: 0.134 z-score
GACGGACTGCTTCTTCTGACGTGCTAG: 0.47 z-score
GACGGTTTCGACACTGCGGACGTGCTA: 2.62 z-score

Repeated from above (series 2):
CTTGTGGA: -0.169
ACGAGCAG: -0.127
GAGTCCTA: -0.0934
AACTGTAT: 0.323
AAACCTCG: -0.0978
TACCACGA: 0.0664
GTTATAAC: 0.234
AGCACGCA: -0.132
CAGTAGCC: -0.18
